Experimental data of several laboratories.
Each numbered part is a random draw from the data of one study; scales do not carry over between parts.

Series 1 — technique: universal PBM; molecule type: double-stranded DNA, one strand shown; medium: in vitro; concentration: 600 nM; reading: higher = stronger binding
Target: Sal-like protein 4, full length isoform A (SALL4, Homo sapiens, UniProt Q9UJQ4, residues 1-1053)
Chain of UniProt Q9UJQ4 (whole entry, looked up): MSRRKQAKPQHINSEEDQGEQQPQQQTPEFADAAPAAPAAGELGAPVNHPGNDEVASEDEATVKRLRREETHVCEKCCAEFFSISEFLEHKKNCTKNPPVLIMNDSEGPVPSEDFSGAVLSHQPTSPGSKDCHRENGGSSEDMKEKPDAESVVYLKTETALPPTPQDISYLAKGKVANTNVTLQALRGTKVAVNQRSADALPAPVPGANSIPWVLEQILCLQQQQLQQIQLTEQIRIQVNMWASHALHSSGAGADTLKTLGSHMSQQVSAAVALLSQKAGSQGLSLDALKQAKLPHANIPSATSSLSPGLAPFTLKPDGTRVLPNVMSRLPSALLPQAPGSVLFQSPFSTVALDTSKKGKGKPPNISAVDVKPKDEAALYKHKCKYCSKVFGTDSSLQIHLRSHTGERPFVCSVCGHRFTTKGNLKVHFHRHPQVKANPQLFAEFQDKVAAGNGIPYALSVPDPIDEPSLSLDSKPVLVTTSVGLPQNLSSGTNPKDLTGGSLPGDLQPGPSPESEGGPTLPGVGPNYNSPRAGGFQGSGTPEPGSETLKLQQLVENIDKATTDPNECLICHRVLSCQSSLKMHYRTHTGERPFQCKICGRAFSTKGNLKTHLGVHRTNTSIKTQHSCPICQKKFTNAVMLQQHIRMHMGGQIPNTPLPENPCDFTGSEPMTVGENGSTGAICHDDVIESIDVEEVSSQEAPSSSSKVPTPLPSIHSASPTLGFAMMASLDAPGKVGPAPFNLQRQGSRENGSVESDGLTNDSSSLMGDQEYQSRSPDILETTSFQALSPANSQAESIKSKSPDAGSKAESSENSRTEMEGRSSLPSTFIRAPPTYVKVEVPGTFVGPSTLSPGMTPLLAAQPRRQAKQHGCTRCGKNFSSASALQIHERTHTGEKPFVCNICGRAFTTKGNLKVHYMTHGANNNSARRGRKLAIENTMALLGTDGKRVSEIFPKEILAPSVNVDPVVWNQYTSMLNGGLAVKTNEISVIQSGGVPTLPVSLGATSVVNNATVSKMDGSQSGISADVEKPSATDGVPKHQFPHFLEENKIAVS
Notes: 8-mer, flanks averaged, mean of replicates
| Sequence | E-score |
| --- | --- |
| GTGTGGGA | -0.033 |
| GGGTTCTA | -0.124 |
| GCGATCAC | -0.153 |
| GAGAAGCC | -0.285 |
| ACCCATCT | 0.0335 |
| CATTAAGG | 0.133 |
| GGGCTACC | -0.418 |
| AGCGTATC | -0.105 |
| CGGACCTA | -0.131 |
| GATTTGGC | 0.0123 |
| CCCTTTTA | 0.158 |
| GCTCCTCA | -0.212 |
| GTCGTTAA | 0.186 |
| GGCACGCA | -0.259 |
| ACTGGGGC | -0.239 |
| ATGCGCTG | -0.189 |

Series 2 — technique: RNA Bind-n-Seq; molecule type: RNA; medium: in vitro; concentration: 20 nM; notes: 6-mer, flanks averaged, single round; together with: 150 mM KCl; baseline: input library; reading: higher = stronger binding
Target: TAR DNA-binding protein 43, full length, His tag (TARDBP, Homo sapiens, UniProt Q13148, residues 1-414)
| Sequence | 6-mer enrichment (R) |
| --- | --- |
| CACGAU | 0.632 |
| UGGGAG | 4.44 |
| UAACAA | 1.01 |
| GAUUUC | 0.558 |
| GUCCUC | 0.62 |
| UUCGGC | 0.747 |
| AGGGAG | 4.96 |
| CAGACU | 0.631 |
| UGGUUU | 0.746 |
| GGUGCA | 1.56 |
| CUAUAU | 0.574 |
| ACCAGG | 1.14 |

Series 3 — technique: RNA Bind-n-Seq; molecule type: RNA; medium: in vitro; concentration: 365 nM; baseline: no-protein control; reading: higher = stronger binding
Target: RNA binding protein fox-1 homolog 2, RRM domain, GST-SBP tag (RBFOX2, Homo sapiens, UniProt O43251-10, residues 100-194)
Notes: natural RNA segment, single round, ends assumed
Shared flanks, not repeated: GGGAGUUCUACAGUCCGACGAUC … UGGAAUUCUCGGGUGCCAA
Residues (chain): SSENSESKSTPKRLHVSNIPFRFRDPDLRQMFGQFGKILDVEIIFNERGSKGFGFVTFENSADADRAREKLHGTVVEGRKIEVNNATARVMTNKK
| Sequence | RBNS enrichment (R) |
| --- | --- |
| AGCCUGUGGGCAGCAUGCCCAGAUUCCCAGACCUUAAGACACUGUGAGAGUUGUCUCUGUUGGUCCACUGUGUUUAGUUGCAAGGAUUUUUCCAUGUGUGGUGGUGUUUU | 4.12 |
| GGGUUUCCUGGACCACCCACUGCUUCUCCCCAACCCUGAUGCGCUGACAUUCCCUUAGCACCAGCUGUCCCACCUCCAGGGUCCUGACCAGGUCAGAGAUGUCCCCUGCC | 0.392 |
| CUGGGGCUUCUAAGGCCUGGCUGCAGAACCUCCUGUGAGGAUAAUAUCUGGUGUUUUCUACAAAUUAAGUUCCUACAUUCCAAUUUUUGUAUCUUUUCUCAGGUUAUGCC | 0.881 |
| CCCUGGGAGUCAGACCAGGGACUCCUCAGGGAGUGAAAUGUGCUUCAGGACACACAGGACUCGAGCCAAGCUCCUGAUCCAGUCACACCCCACCCCCGACUCCCCUGCCU | 0.243 |
| CUUUCAUAACAUAUUCUACAAGUUUCCUUAAGACUGUUGUUAUAGUCUGGCUGAACCCAUUUCCACCUGCAAAGUCUUGUGUUGUGUCUGCAGGCCACACCAGUGGCCAC | 0.626 |
| UUUAUUUUUCUACUUGGAACUGUACACAUUUGAAAAGUACCCAAAUAAACCAGAAGCUUUAUCGUUGCUGGGCCAGCCUUUGCCUUAGUGUGGAGGCUGGGGGCGGUGGG | 0.222 |
| AGUUAAUUUAUCAACAGCCUAAAACUGUUGCCAGGUCAUCUUACAGUUUAAAACAUGCCAUCUCAUCGGUAGUCCCUGCUCUUUUCCCUCUCCCAUCUGCCAGUCUCUCU | 0.528 |
| AUGUUAUUGGUGUCUUCACUGGAUGUAUUUGACUGCUGUGGACUUGAGUUGGGAGGGGAAUGUUCCCACUCAGAUCCUGACAGGGAAGAGGAGGAGAUGAGAGACUCUGG | 6.36 |
| CAAGGGCAACUCACGGGUGCAUGAAACCACUGGAACAUGGCCGUCGCUGUGGGGGUUUUUUUCUCUGGGGUUCCCCUGGAAAGGCUGCAGGAACUAGGCACAAGCUCUCU | 0.894 |
| GUUAAGGGCACAAAGACAGCCAUGGGGACAUUUAUGUAAAUACGUCUCUAAUUGCCACACUGCAGCUGAACAGUGUGUAGUAUUUUCCCAGUCAGCUUUGCCAUACUGAC | 1.15 |
| UUUUCUGUAUUUUUCCCCCUCUCUUUAAAACAUCACUGAAAUUUCAAUAAAUUUUUAUUGAAAUGUCUUGGGCCUUGUGUUAAAUGUUUUUUCUUUGGGAACCUUUCCUG | 0.596 |
| AACCAAAUUCACCGUUAGGAAACAGUGAGCUCCGGCCCCACCUCGUGAACACAAAGCCUCGGAUCAGCCUUGAGAGAGGCCACACUACACACACCAGAUGGCAUCCUUGG | 0.408 |

Series 4 — technique: protein-binding microarray; molecule type: double-stranded DNA, one strand shown; medium: in vitro; concentration: 940 nM top; notes: 60-bp whole probe; together with: salmon DNA 0.4 mg/ml; baseline: random background probes; reading: higher = stronger binding; shared flanks, not repeated: GCCTAGCAC … GTCTTGATTCGCTTGACGCTGCTG
Target: Interferon regulatory factor 5, full length, phosphomimetic (IRF5, Homo sapiens, UniProt Q13568-2, residues 1-514, S451D/S453D/S456D/S462D)
| Sequence | fitted relative affinity |
| --- | --- |
| TCAAGTCTGGGCTACAACTTGGTGCTA | -0.621 z-score |
| GAGGATTCCAGTTTCGAGACGTGCTAG | 3.46 z-score |
| GCCATTGTGGATCTTGCAGAGTGCTAG | -0.42 z-score |
| TTTCTTTTATGCTCTTTCTACGTGCTA | 4.45 z-score |
| TCAGTTATTAAATTTTCAACTGTGCTA | 0.325 z-score |
| TTAGGTATCGGTTTCGCTTAGTGCTAG | 11.2 z-score |
| GACGGTCTCGGACAGGGGACGTGCTAG | 0.599 z-score |
| TCAGTTTTCGCTTTCTTACTGTGCTAG | 3.05 z-score |
| GACGGTTTTCTTTCCCTGACGTGCTAG | 1.43 z-score |
| TATAGGTTGTTTCTAATATTGTGCTAG | 0.985 z-score |
| TCAAAGATTGCCGTTTCCACTGTGCTA | 0.102 z-score |
| TTTGGTATCCTTTTCCTTTAGTGCTAG | 1.76 z-score |
| TCATTTCTTTACTTCACACTGTGCTAG | 1.71 z-score |
| GACGTTTCCAGTTTCGAGACGTGCTAG | 4.26 z-score |
| GACGAACTGAGTCTCGTGACGTGCTAG | -0.166 z-score |
| GACGGTTTCGGACTGGGAACGTGCTAG | 6.24 z-score |
| CCTGTAATCCCAGCTACTCAGTGCTAG | 0.324 z-score |
| GACGGACTGGGTTTAGGGACGTGCTAG | -0.222 z-score |
| TGTGCATGTGTGTTTTCTGCGTGCTAG | -0.0615 z-score |
| TTAGAACTGGGGACTGGATCAGTGCTA | -0.33 z-score |
| TTAGGTTTCGGGACTGTGTTAGTGCTA | 7.73 z-score |
| TTAGGTTTCGGGTACCGGTTAGTGCTA | 10.6 z-score |
| TTAGATATTGGGTTTCGATTAGTGCTA | 5.91 z-score |
| GACGGACTGGATTATCGGGACGTGCTA | -0.447 z-score |
| TTAGAACTGAGTTTCGAATAGTGCTAG | 2.97 z-score |

Series 5 — technique: protein binding microarray; molecule type: double-stranded DNA, one strand shown; medium: in vitro; concentration: not given; baseline: not given; reading: higher = stronger binding
Target: Histone acetyltransferase KAT6A, winged helix 1, GST fusion (KAT6A, Homo sapiens, UniProt Q92794, residues 1-85)
Notes: 8-mer, flanks averaged, mean of 2 arrays, mostly near background
Target sequence (chain): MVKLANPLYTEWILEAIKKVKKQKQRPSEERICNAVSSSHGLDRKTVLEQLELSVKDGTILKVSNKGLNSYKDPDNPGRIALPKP
| Sequence | E-score |
| --- | --- |
| ATCAGTGG | -0.318 |
| ATAACCTA | -0.126 |
| TATATCGA | 0.0262 |
| AACTCAGG | -0.229 |
| AGGGATGA | -0.232 |
| CAACGGGA | 0.0584 |
| ATGAGCAA | -0.223 |
| AGCCGGGG | 0.173 |
| CCCGTCTA | 0.187 |
| AACCTGGC | -0.136 |
| ATCTTTGA | -0.132 |
| GAGCGGGA | 0.273 |
| CGGAGTTA | 0.129 |
| AGCACCCA | -0.189 |
| CCGAGATC | 0.0242 |
| AAGCCCCA | -0.341 |
| CAAAGATA | -0.165 |
| ACCTCTGG | -0.222 |
| AGCTACAC | -0.0762 |
| ATAGAAGC | -0.23 |
| ATGCATGC | -0.117 |
| GTCGATAA | 0.0316 |
| CATTGTCA | -0.165 |
| CTTTGCGC | 0.204 |
| ATCATATC | 0.0396 |

Other studies, line by line
| Molecule | target | test | test system | setting | scale | measurement | value |
| --- | --- | --- | --- | --- | --- | --- | --- |
| PhoQ, residues 284 288 289 292 302 303 WSHMKI | PhoP, residues 12 14 15 18 19 TPWTL (Escherichia coli, UniProt P23836) | Sort-seq, measured: YFP reporter | E. coli | PhoQ-PhoP variant library, together with: 10 µM Mg2+ | baseline: high Mg2+ state, higher = stronger signaling | fold induction | 1.18 |
